Results collected from several papers.
A part holds a random share of what one study measured.
Sequence of UniProt Q9UQM7 (whole entry, looked up): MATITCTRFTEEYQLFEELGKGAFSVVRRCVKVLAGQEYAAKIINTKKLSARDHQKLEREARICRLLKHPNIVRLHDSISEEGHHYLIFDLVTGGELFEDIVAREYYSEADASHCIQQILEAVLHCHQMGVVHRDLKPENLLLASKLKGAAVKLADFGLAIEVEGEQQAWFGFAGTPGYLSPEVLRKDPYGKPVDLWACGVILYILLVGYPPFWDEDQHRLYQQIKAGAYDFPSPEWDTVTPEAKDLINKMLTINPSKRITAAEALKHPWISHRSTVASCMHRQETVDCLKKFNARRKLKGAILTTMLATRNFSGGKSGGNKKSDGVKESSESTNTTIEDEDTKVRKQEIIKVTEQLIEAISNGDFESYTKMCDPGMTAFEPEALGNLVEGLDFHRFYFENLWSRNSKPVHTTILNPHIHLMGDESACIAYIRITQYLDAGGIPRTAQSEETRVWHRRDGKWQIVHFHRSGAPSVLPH
Sequence of UniProt P51582 (whole entry, looked up): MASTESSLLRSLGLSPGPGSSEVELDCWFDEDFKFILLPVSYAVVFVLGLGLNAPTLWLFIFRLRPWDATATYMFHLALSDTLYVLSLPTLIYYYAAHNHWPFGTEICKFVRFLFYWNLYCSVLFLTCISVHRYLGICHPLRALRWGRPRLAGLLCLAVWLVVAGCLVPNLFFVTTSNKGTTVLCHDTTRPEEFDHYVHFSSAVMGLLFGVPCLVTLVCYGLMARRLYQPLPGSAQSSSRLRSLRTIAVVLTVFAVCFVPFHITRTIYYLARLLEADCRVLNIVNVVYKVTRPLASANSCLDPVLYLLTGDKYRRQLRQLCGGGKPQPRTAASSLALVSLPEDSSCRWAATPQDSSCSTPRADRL
Sequence of UniProt P78362 (whole entry, looked up): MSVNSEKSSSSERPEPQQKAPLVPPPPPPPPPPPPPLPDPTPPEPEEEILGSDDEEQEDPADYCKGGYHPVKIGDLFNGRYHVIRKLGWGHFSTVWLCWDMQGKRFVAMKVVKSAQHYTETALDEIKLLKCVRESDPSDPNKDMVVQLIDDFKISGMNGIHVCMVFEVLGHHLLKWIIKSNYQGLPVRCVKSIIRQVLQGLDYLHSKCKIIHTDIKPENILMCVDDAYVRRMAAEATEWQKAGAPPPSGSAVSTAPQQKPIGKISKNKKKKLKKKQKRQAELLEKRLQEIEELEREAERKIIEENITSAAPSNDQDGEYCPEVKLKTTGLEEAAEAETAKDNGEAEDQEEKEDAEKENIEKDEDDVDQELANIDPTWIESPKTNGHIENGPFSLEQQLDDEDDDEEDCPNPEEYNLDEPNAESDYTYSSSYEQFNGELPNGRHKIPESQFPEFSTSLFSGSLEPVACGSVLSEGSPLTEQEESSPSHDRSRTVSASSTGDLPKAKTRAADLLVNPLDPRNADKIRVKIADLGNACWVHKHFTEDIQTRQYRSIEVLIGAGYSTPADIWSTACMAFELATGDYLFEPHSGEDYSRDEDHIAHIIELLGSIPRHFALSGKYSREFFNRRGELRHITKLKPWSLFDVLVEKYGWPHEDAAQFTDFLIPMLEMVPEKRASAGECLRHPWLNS
Sequence of UniProt Q5T6X5 (whole entry, looked up): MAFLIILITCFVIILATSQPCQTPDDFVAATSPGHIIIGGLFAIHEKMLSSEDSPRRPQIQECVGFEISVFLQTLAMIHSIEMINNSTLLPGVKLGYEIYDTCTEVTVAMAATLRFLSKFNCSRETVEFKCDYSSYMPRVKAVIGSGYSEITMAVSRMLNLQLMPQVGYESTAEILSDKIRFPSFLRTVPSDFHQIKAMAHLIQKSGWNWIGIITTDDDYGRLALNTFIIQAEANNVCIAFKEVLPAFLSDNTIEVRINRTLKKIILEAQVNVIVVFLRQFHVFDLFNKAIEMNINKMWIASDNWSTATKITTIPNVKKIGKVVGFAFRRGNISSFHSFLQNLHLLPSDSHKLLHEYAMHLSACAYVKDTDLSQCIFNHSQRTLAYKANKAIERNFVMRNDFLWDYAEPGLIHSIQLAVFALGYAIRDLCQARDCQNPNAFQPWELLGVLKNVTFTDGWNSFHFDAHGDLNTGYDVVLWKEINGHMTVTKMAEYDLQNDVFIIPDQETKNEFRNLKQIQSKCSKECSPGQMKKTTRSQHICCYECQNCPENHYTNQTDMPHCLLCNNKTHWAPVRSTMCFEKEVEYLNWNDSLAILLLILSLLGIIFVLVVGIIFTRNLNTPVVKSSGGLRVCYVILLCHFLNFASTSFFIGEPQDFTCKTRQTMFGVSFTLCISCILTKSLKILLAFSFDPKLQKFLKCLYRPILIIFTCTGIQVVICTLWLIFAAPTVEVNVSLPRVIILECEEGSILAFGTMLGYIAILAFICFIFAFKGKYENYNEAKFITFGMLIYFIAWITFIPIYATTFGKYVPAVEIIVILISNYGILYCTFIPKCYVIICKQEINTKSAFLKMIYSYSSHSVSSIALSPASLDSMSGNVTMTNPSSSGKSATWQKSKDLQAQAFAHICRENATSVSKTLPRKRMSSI
Sequence of UniProt P25021 (whole entry, looked up): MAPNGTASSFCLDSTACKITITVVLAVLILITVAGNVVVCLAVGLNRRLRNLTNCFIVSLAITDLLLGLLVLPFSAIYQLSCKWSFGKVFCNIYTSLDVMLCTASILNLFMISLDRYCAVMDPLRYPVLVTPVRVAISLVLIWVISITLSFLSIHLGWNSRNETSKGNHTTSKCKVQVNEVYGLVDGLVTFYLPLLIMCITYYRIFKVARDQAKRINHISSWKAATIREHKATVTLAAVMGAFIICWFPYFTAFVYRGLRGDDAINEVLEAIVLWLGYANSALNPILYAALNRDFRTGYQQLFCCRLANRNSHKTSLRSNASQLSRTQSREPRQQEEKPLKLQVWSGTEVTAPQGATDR
Sequence of UniProt O75676 (whole entry, looked up): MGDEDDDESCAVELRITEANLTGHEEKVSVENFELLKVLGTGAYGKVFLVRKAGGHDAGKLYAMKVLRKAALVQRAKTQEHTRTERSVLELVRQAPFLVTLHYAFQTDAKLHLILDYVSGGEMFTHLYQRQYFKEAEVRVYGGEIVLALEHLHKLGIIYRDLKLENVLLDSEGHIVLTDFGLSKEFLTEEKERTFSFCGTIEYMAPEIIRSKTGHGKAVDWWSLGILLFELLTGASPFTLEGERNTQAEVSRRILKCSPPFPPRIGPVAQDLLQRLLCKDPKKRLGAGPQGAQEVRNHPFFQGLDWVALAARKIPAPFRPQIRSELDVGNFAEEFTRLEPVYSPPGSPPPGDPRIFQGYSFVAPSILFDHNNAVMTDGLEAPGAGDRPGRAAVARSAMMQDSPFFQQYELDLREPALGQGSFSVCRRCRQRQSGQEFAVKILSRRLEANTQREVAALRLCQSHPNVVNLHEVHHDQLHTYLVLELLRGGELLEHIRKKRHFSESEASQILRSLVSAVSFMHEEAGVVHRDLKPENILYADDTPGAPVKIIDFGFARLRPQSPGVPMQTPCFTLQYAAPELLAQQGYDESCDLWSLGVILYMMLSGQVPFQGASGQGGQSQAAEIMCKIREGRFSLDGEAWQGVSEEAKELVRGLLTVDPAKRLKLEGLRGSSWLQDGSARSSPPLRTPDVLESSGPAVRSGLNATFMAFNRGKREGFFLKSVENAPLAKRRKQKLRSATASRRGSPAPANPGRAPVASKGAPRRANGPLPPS

Block 1 — read-out: enzyme activity; action: inhibitor; concentration: 0.5 µM; relative to: control
Target: Serine/threonine-protein kinase Nek1 (NEK1, Homo sapiens, UniProt Q96PY6)
Sequence of UniProt Q96PY6 (whole entry, looked up): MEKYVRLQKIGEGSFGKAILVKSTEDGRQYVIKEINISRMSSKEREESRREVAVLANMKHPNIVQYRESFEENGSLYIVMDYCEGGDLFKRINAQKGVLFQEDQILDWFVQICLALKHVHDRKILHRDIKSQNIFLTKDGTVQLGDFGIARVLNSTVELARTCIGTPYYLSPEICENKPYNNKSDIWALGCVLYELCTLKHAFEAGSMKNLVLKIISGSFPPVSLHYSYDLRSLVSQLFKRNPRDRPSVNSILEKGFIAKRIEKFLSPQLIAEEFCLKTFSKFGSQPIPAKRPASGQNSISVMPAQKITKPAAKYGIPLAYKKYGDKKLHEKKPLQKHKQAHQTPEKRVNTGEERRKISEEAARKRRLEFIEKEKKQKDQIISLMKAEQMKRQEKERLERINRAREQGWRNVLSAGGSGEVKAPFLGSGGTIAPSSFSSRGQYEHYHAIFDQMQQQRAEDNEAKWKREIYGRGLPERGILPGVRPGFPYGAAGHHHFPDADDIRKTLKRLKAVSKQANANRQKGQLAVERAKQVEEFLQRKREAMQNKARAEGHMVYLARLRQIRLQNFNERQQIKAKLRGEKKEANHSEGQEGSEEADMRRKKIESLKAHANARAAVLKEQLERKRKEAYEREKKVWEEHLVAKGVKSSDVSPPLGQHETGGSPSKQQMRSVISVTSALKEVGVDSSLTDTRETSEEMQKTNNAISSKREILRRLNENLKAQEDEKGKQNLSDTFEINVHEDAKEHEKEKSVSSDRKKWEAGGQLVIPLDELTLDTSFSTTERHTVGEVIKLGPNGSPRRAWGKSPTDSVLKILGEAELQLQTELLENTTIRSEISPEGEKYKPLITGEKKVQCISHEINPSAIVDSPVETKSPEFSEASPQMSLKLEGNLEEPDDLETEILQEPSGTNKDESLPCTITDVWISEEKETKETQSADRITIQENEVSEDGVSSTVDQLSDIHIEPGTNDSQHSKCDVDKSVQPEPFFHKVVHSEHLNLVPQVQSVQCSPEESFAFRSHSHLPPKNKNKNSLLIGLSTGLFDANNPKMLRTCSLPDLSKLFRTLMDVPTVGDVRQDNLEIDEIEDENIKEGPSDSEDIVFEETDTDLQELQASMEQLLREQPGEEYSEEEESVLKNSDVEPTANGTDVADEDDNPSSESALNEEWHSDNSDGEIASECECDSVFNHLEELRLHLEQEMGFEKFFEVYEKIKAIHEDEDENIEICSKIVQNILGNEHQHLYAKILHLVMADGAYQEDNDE
`O=C1c2ccccc2-c2n[nH]c3cccc1c23` gave a remaining activity of 70.7%.
`c1ccc(-c2cnc(Nc3ccc(OCCN4CCCC4)cc3)s2)cc1` has a remaining activity of 94.2%.
With `Cc1cn(-c2cc(NC(=O)c3ccc(C)c(Nc4nccc(-c5cccnc5)n4)c3)cc(C(F)(F)F)c2)cn1` the remaining activity was 75%.
For `C[C@@H]1CCN(C(=O)CC#N)C[C@@H]1N(C)c1ncnc2[nH]ccc12`, the remaining activity was 84.6%.
With `Cc1nc2cc3nc(-c4cccs4)cnc3cc2n1C` the remaining activity was 94%.
`CN(C)C[C@H]1CCn2c(c(C3=C(c4cn(C)c5ccccc45)C(=O)NC3=O)c3ccccc32)C1` has a remaining activity of 105%.
`CCN(CC)CCNC(=O)c1c(C)[nH]c(/C=C2\C(=O)Nc3ccc(Cl)cc32)c1C` gave a remaining activity of 94.7%.
The remaining activity of `N#Cc1c(NC(=O)c2cccc3ccccc23)sc2c1CCCC2` is reported as 93.4%.
With `COc1cc2ncnc(Nc3ccc(O)c(Br)c3)c2cc1OC` the remaining activity was 90.5%.
The remaining activity of `Ic1cccc(CSc2nnc(-c3ccncc3)o2)c1` is reported as 95.5%.
The remaining activity of `COc1cc2c(cc1OC)-c1[nH]nc(Nc3cccc(F)c3)c1C2` is reported as 93%.
With `O=C(NC(NC(=S)Nc1ccc(F)c([N+](=O)[O-])c1)C(Cl)(Cl)Cl)C(c1ccccc1)c1ccccc1` (centres unmarked) the remaining activity was 101%.

Block 2 — read-out: cell-free assay; method: competition with immobilised ligand; concentration: 1 µM
Structure (SMILES): CO[C@H]1CC[C@H](CNc2ccc(S(=O)(=O)NC(=O)c3ccc(N4CCN(CC5=C(c6ccc(Cl)cc6)CC(C)(C)CC5)CC4)cc3Oc3cnc4[nH]ccc4c3)cc2[N+](=O)[O-])CC1
The remaining binding was 68% (CAMK2A (Homo sapiens, UniProt Q9UQM7)).
The remaining binding was 100% (TNIK (Homo sapiens, UniProt Q9UKE5)).
For NTRK2 (Homo sapiens, UniProt Q16620): remaining binding read 100%.
The remaining binding was 55% (SRPK2 (Homo sapiens, UniProt P78362)).
The remaining binding was 92% (PIK3C2B (Homo sapiens, UniProt O00750)).
It gave 92% for remaining binding (CLK1 (Homo sapiens, UniProt P49759)).
The remaining binding was 61% (HIPK1 (Homo sapiens, UniProt Q86Z02)).
For Ribosomal protein S6 kinase alpha-4, C-terminal kinase domain (RPS6KA4, Homo sapiens, UniProt O75676): remaining binding read 90%.
LATS2 (Homo sapiens, UniProt Q9NRM7) — remaining binding: 100%.
The remaining binding was 85% (Tyrosine-protein kinase ABL1, phosphorylated (ABL1, Homo sapiens, UniProt P00519, M351T)).

Block 3 — read-out: enzyme activity; action: inhibitor; concentration: 10 µM
Target: Calcium/calmodulin-dependent protein kinase type II subunit alpha (CAMK2A, Homo sapiens, UniProt Q9UQM7)
The inhibition of `OC[C@H]1O[C@@H](Oc2cc(O)ccc2/C=C/c2cc(O)cc(O)c2)[C@H](O)[C@@H](O)[C@@H]1O` is reported as -6%.
`COc1c2ccoc2nc2c(O)cccc12` gave an inhibition of -48%.
With `C=CCC1=C[C@]2(OC)C(=O)C(OC)(OC)[C@H]1[C@@H]1C(OC)(OC)C(=O)C(OC)=C[C@@]12CC=C` the inhibition was 5%.
The inhibition of `O=C(O[C@@H]1[C@@H](O)[C@H](Oc2cc(O)c(C(=O)CCc3ccccc3)c(O)c2)O[C@@H]2COC(=O)c3cc(O)c(O)c(O)c3-c3c(cc(O)c(O)c3O)C(=O)O[C@@H]12)c1cc(O)c(O)c(O)c1` is reported as 62%.
With `CCCCCCC/C=C/C(=O)N1C(=O)C(C(C)=O)=C(O)[C@H]1CC(C)C` the inhibition was 36%.
The inhibition of `Cc1oc(=O)oc1CN1CCN(c2cc3c(cc2F)c(=O)c(C(=O)O)c2n3C(C)S2)CC1` (centres unmarked) is reported as -3%.
`CN1C(CCl)Nc2cc(Cl)c(S(N)(=O)=O)cc2S1(=O)=O` (centres unmarked) gave an inhibition of -4%.
`CCOC(=O)/C=C/C(=O)OCC` gave an inhibition of -59%.
With `COc1ccccc1O` the inhibition was 4%.

Block 4 — read-out: β-arrestin recruitment; action: agonist; method: PRESTO-Tango; concentration: 10 µM; relative to: untreated
Compound: N=C(N)NC(=O)c1cnn(-c2cccc3ncccc23)c1C1CC1
It gave 1.08 fold for “fold over basal” (TBXA2R (Homo sapiens, UniProt P21731)).
For CMKLR2 (Homo sapiens, UniProt P46091): “fold over basal” read 1.01.
CXCR5 (Homo sapiens, UniProt P32302) — “fold over basal”: 0.83.
The “fold over basal” was 0.95 fold (GALR1 (Homo sapiens, UniProt P47211)).
For HRH2 (Homo sapiens, UniProt P25021): “fold over basal” read 0.88 fold.
For ADRA2A (Homo sapiens, UniProt P08913): “fold over basal” read 1.44.
ADRA1D (Homo sapiens, UniProt P25100) — “fold over basal”: 1.06.
It gave 1.44 fold for “fold over basal” (G-protein coupled receptor family C group 6 member A (GPRC6A, Homo sapiens, UniProt Q5T6X5)).
It gave 1.07 for “fold over basal” (Probable G-protein coupled receptor 152 (GPR152, Homo sapiens, UniProt Q8TDT2)).
For P2Y purinoceptor 4 (P2RY4, Homo sapiens, UniProt P51582): “fold over basal” read 0.93.
For AVPR2 (Homo sapiens, UniProt P30518): “fold over basal” read 1.15.
It gave 0.7 for “fold over basal” (AVPR1B (Homo sapiens, UniProt P47901)).
For Trace amine-associated receptor 6 (TAAR6, Homo sapiens, UniProt Q96RI8): “fold over basal” read 1.34 fold.

A few entries again (block 2):
The remaining binding was 85% (Tyrosine-protein kinase ABL1, phosphorylated (ABL1, Homo sapiens, UniProt P00519, M351T)).
The remaining binding was 61% (HIPK1 (Homo sapiens, UniProt Q86Z02)).
For NTRK2 (Homo sapiens, UniProt Q16620): remaining binding read 100%.
The remaining binding was 55% (SRPK2 (Homo sapiens, UniProt P78362)).
The remaining binding was 92% (PIK3C2B (Homo sapiens, UniProt O00750)).
The remaining binding was 68% (CAMK2A (Homo sapiens, UniProt Q9UQM7)).
